Results pooled from the literature.
Protocols differ between the studies behind these lines. ± marks the error that the study gave.

[Cl-].[Cl-].[Ru+2].c1ccc(-c2ccccn2)nc1.c1ccc(-c2ccccn2)nc1.c1ccc2cc3nc4c5cccnc5c5ncccc5c4nc3cc2c1 — GI50 (SK-MEL-28; sulforhodamine B; normoxia, together with: green light 523 nm): 278 nM
Cc1cccc(NC(=O)CC(=O)Nc2ccc3[nH]nc(/C=C/c4ccccn4)c3c2)c1 — GI50 (Ba/F3 TEL-VEGFR3; cell growth, CCK-8): 2000 nM
CCN1CCN(Cc2ccc(C(=O)Nc3ccc(C)c(NCc4cnc5[nH]ccc5c4OC)c3)cc2C(F)(F)F)CC1 — GI50 (U2OS overexpressing wild-type DDR1; cell growth): 1100 nM
O=C(CC(=O)Nc1ccc2[nH]nc(/C=C/c3ccccn3)c2c1)Nc1cccc(F)c1 — GI50 (Ba/F3 TEL-VEGFR3; cell growth, CCK-8): 2000 nM
CSc1cc(C)[nH]c(=O)c1CNC(=O)c1c(C)n(C(C)C2CCC(NC3(C)COC3)CC2)c2ccccc12 (stereo not drawn) — GI50 (KARPAS-422; cell growth or viability; 8 days): 11 nM
CCN(C(=O)c1cc(F)ccc1Oc1nncnc1N1CCC2(C1)CN([C@H](CCCN(C)CCOC)C(C)C)C2)C(C)C — GI50 (SK-MEL-5; cell growth or viability; 72 h): > 10000 nM
N#C[Se]CCCCCCOc1ccc2c(-c3ccccc3)cc(=O)oc2c1 — GI50 (SW1573; cell growth or viability, SRB): 4700 nM
Cc1cc(C)c(CNC(=O)c2c(C)n(C(C)C3CCC(NC4(C)COC4)CC3)c3ccccc23)c(=O)[nH]1 (stereo not drawn) — GI50 (KARPAS-422; cell growth or viability; 8 days): 150 nM
O=C(CNC(=O)c1ccc(Cl)c(C(F)(F)F)c1)Nc1ccc2[nH]nc(/C=C/c3ccccn3)c2c1 — GI50 (Ba/F3 TEL-VEGFR2; cell growth, CCK-8): 750 nM
N#CSCCCCCCOc1ccc2c(-c3ccccc3)cc(=O)oc2c1 — GI50 (SW1573; cell growth or viability, SRB): 75000 nM
NCC(=O)Nc1ccc(Sc2ccc3c(/C=C/c4ccccn4)n[nH]c3c2)cc1 — GI50 (Ba/F3 TEL-VEGFR3; cell growth, CCK-8): 2890 nM
CCc1cc(N2C(=S)N(c3ccc(C#N)c(C(F)(F)F)c3)C(=O)C2(C)C)ccc1OCCN1CCN(CC(=O)Nc2cccc(NC3CCC(=O)NC3=O)c2)[C@H](C)C1 (stereo partly drawn) — GI50 (LNCaP CRBN knockout; androgen-stimulated proliferation, CellTiter-Glo; 168 h): 583 ± 203 nM

Some of these lines once more:
CCN(C(=O)c1cc(F)ccc1Oc1nncnc1N1CCC2(C1)CN([C@H](CCCN(C)CCOC)C(C)C)C2)C(C)C — GI50 (SK-MEL-5; cell growth or viability; 72 h): > 10000 nM
